Measured values pooled from the literature.
A part holds a random share of what one study measured.

Study 1
Target: RNA binding protein fox-1 homolog 2, RRM domain, GST-SBP tag (RBFOX2, Homo sapiens, UniProt O43251-10, residues 100-194)
Technique: RNA Bind-n-Seq
Form: RNA
Matrix: in vitro
Concentration: 365 nM
Notes: natural RNA segment, single round, ends assumed
Baseline: no-protein control
Direction: higher = stronger binding
Endpoint: RBNS enrichment (R)
Constant ends, left off below: GGGAGUUCUACAGUCCGACGAUC … UGGAAUUCUCGGGUGCCAA
Construct (chain): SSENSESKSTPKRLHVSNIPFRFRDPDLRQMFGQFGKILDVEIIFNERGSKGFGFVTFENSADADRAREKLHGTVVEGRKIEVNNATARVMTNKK
Strand = CAAAUCUUGUUGCUGAUUUGUCCAUUUCUUUCCCUGCACUUUGUUACAUCUGGGAUACAGUCUAACUCAUCUGAUUUAAUAUGCAUUUAAAAAAAUGCCAUAACUAUUAA; result = 0.533
Strand = UCUACUACCAGAAGGGCUUCAAAGAUAUAGGGUGUGGCUCCUACCAGCAAACAGCUGAAAGAGGAGGACCCCUGCCUUCCUCUGAGGACAGGCUCUAGAGAGAGGGAGAA; result = 0.352
Strand = AAGCACCCUGCAGCCCUGCAGACACCCCCCCCCUCCAAGAGUGGGAGGCAGGGACCACAGAACUGUCCAGCCAACACGUCUGAACUGGAACUGUUCCACUUGAACCCGGG; result = 0.187
Strand = AGUAACCCUCAAGUGAAGUGUCUCUAUACUGUUUUAUAGAGUACUUUAACAUGAAUAGAUACCUUGUAAACUUGUAUUGUGGAUGUGUAAAUAAUAUGUACUUUGGGUUU; result = 0.819
Strand = UGAUGGUCUUGUAAUCUGAUUUUCUGCAGUCAUACCCCGAGAAAGAAAUUCAAGAAAAAAUGACAUUAAAUCAUCUGUGCAUUUCAUAUACAGGAGAGUUAUCUCCUUCC; result = 0.42
Strand = AACAGAUGAAACUUUUUGCAUCGCUUGAGUCAUUUUUAUCACAAUAAUCCUACUGUGAAGCUGUCGUUGAGAACUUAGGUUGGCACGUAGCGUCUCAAGGUAUGCGUUCU; result = 1.04
Strand = UGUAUAUUAAAAUAGCAUACUGUGUAUGUUUUAUAUCAAAUGCCUUCAUGAAUCUUUCAUACAUAUAUAUAUUUGUAACAUUGUAAAGUAUGUGAGUAGUCUUAUGUAAA; result = 0.661
Strand = CUUUCCUUCUCAGAGCCUCCUGAACCCCUGGGUAGGGCCUCCCCAUGUACCCUGCCGACUGACUGAGGCACACAACUUCCCUGGCUUAUCAGAAGAUUCAUUUACAGGGA; result = 0.608
Strand = CUCUGAACUUCAUUCUCCCCAUAAGCCAAACAAGAACAGACCUCCCCCGCCACCUCCCAGGCACCGUAGUUGUGAGAAUCAGAUGUGAUCAUGUGUGCAGAUGUCCUGUG; result = 1.84
Strand = GGGAACAUUUAUGAUUUUCUUUCAACAUUAAAACUGAAGUUAGUUUUGCCAUUUUUGAAAGUAUUAGUAAAAUCAUGGAAUACAUCACAGAACAGCUGUCCAUCAGUGAG; result = 0.554
Strand = CUAGUGAAUCGCCACUGUACUGUAAUAAUGGUUAUUUACCUCUGUGCUGUUUUAAUUACCUAACGUCUGUGUAACUGCUGAUUUGAGUAGUGAUUAGCAUUUAGAUAAUG; result = 0.317
Strand = CGCUGGGCAUCUCUCCUCUGUGGCUCUAGGACAUCUGUCCAGGAGGCUGGGCGGAGGUGGGCAGGAUGUGAGAGGUGGGGAGUACUGGCUGUGCGUGGCAGGACAGAAGC; result = 0.746

Study 2
Target: Ras GTPase-activating protein-binding protein 1, RRM domain (G3BP1, Homo sapiens, UniProt Q13283)
Chain of UniProt Q13283 (whole entry, looked up): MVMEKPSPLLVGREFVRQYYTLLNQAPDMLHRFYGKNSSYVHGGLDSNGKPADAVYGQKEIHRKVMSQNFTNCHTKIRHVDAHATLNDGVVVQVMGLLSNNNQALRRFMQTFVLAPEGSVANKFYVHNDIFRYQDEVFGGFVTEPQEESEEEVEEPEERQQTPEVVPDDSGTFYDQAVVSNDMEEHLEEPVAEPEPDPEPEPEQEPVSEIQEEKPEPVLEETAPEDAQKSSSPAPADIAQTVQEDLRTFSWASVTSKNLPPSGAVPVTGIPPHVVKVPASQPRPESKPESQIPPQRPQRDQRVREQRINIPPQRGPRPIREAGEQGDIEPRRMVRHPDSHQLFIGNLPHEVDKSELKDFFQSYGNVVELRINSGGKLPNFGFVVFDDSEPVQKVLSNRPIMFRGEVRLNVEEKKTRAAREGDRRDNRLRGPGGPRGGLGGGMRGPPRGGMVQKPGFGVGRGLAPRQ
Technique: RNA Bind-n-Seq
Form: RNA
Matrix: in vitro
Concentration: 1 µM
Notes: whole 134-nt RNA, ends assumed
Added: 150 mM KCl
Baseline: input library
Direction: higher = stronger binding
Endpoint: log2 enrichment
Constant ends, left off below: GGGAGUUCUACAGUCCGACGAUC … UGGAAUUCUCGGGUGUCAAGG
Strand = GUCCUGUGCUACACAUCGUAUGUACCGAAUCGGGGUUUUUUUGGGGAGGGGUUUGGGGAAAGUAUUAUGUUACGCCGUUCGGAUCUGCAC; result = 0.851
Strand = CUCAAGUCCUGUGCUACACAUCGUAUGUACCGAAUCGGUGGUGGAAAAAAAGGAAAGUAUUAUGUUACGCCGUUCGGAUCUGCACUUCCA; result = -0.204
Strand = UCCUGUGCUACACAUCGUAUGUACCGAAUCGGGGUGGGGUUUUUUUGGGGUUUUUGGGGAAAGUAUUAUGUUACGCCGUUCGGAUCUGCA; result = 0.709
Strand = GUCCUGUGCUACACAUCGUAUGUACCGAAUCGGAAAAAGGGAAAAAGGGGAAAAAGGGGAAAGUAUUAUGUUACGCCGUUCGGAUCUGCA; result = 0.12
Strand = GCAGGAAGUAAAAACAAAUGGAAAUGCUUCGGAUAGUGGCAGGGGUGGGGGUUGCUAAGGAAAGGGUGGGAUGGGAAAAGGUAAAGAGUU; result = 1.55
Strand = AAGUCCUGUGCUACACAUCGUAUGUACCGAAUCAAAUUUAAACCCCCAAACCCAAAAAAGUAUUAUGUUACGCCGUUCGGAUCUGCACUU; result = -0.176
Strand = UCCUGUGCUACACAUCGUAUGUACCGAAUCGGGGAAAAAAGGAAAAAAGGAAAAAAGGGGAAAGUAUUAUGUUACGCCGUUCGGAUCUGC; result = 0.0371
Strand = ACCAUGCAGGUGAGCAUCUUUGGGAAGUGGGGCAAGGGGGGGAUAGGGAGGGGGGUAACACUUUGGGAACAGGUGGUCCCAGGUCGUUUC; result = -0.476
Strand = UGGGAGGUGGAUUUUGUUUAUUUUUUUAGCUCAUUUCCAGGGGUGGGAAUUUUUUUUGAAUAUGUGUCAUGAAUAAAGUUGUUUUUGAAA; result = 1.9
Strand = CCUGUGCUACACAUCGUAUGUACCGAAUCGGGGUGGGGAAAAAAAGGGGUUUUUUUGGGGAAAGUAUUAUGUUACGCCGUUCGGAUCUGC; result = 0.542
Strand = UGUGCUACACAUCGUAUGUACCGAAUCGGGGCCCCCCCGGGGCCCCCCCGGGGCCCCCCCGGAAAGUAUUAUGUUACGCCGUUCGGAUCU; result = -0.489
Strand = CUGUGCUACACAUCGUAUGUACCGAAUCGUGUGUGUGUGUGUGUGUGUGUGUGUGUGUGUGUAAAGUAUUAUGUUACGCCGUUCGGAUCU; result = 0.19
Strand = UAACUUUAGAGGAGGAUCUGAUGGAUAUGGCAGUGGACGUGGGUUUGGGGAUGGCUAUAAUGGGUAUGGAGGAGGACCUGGAGGUGGCAA; result = -0.552
Strand = UGGCCCUGGUGGCAUGCGGGGAGGAAGAGGUGGCCUCAUGGAUCGUGGUGGGCCCGGUGGAAUGUUCAGAGGUGGCCGUGGUGGAGACAG; result = -0.0814

Study 3
Target: Histone acetyltransferase KAT6A, winged helix 1, GST fusion (KAT6A, Homo sapiens, UniProt Q92794, residues 1-85)
Technique: protein binding microarray
Form: double-stranded DNA, one strand shown
Matrix: in vitro
Concentration: not given
Notes: 8-mer, flanks averaged, mean of 2 arrays, mostly near background
Baseline: not given
Direction: higher = stronger binding
Endpoint: E-score
Construct (chain): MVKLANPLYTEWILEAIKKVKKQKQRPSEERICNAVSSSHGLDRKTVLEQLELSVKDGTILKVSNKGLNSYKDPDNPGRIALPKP
Strand = TTGTTAAA; result = -0.117
Strand = ACCTTCCC; result = 0.0181
Strand = ATTAAGTC; result = -0.128
Strand = GAGCCTCC; result = -0.0844
Strand = GTTTTGTA; result = -0.147
Strand = CTTATATC; result = -0.13
Strand = AAAACGCT; result = -0.0442
Strand = ACAAGTGG; result = -0.163
Strand = CTAACCTC; result = -0.128
Strand = ACCCCGAT; result = 0.0675
Strand = CCTCAGCG; result = 0.3
Strand = GATGTCAC; result = 0.00751
Strand = AGAACTCC; result = -0.111
Strand = AACGACCC; result = 0.0668
Strand = GGGACTTA; result = 0.0586
Strand = ACAACCAG; result = -0.155
Strand = GCTCGCCA; result = 0.102
Strand = GCTTTATA; result = 0.0416
Strand = CTGCTGAA; result = -0.105
Strand = ACTAGATG; result = -0.165
Strand = CAGCGCAC; result = 0.176
Strand = CTTCGAAG; result = -0.134
Strand = GCCTATCA; result = -0.122
Strand = GCAAACAA; result = -0.192
Strand = CCACCAAC; result = -0.135

Study 4
Target: RING finger protein unkempt homolog, zinc fingers 1-6, GST-SBP tag (UNK, Homo sapiens, UniProt Q9C0B0, residues 30-357)
Technique: RNA Bind-n-Seq
Form: RNA
Matrix: in vitro
Concentration: not given
Notes: RNA with constant flanks, human-mouse chimeric sites, ends assumed
Baseline: input RNA pool
Direction: higher = stronger binding
Endpoint: bound/input enrichment
Constant ends, left off below: GGGAGUUCUACAGUCCGACGAUC … CAACAGAGGAUUGAGCAUCA
Residues (chain): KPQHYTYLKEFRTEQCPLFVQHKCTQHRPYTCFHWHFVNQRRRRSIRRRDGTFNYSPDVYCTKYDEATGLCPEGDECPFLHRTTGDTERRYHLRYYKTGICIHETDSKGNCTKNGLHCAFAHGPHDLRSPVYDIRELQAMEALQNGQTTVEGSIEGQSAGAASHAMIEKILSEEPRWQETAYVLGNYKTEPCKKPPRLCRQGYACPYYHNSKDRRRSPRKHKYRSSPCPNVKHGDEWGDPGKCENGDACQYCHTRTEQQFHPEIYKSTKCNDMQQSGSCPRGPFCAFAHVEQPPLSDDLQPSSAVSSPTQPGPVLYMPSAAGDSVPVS
Strand = CUGGCACUCUAUCAGAUAUAUUAAUUUUUUAAUGUAGAUGUAAUUUUAAAAAUGAAUGGCUAGUUUACGUGAUAGAUUAGGGUUUUACUAUAUAUGUGUACAUAUGUAUAUAUAUAUAUA; result = 6.62 ratio
Strand = AAAGAACCUCUCUCUGAUGAAGAUGAGGAAGACAAUGAUGAUGUUGAACCCAUUUCUGAAUUUCGAUUUGUGCCUAGUGAUAAGUCAGCAUUGGAGGCGAUGUUCACAGCAAUGUGUGAG; result = 0.401 ratio
Strand = GUGACUGGUGUUAAGAUUUACCCUCAGCAAAGAAGUGCAGUAGUCACCAUAAUUCCAUCUGUGGUGAGUGCCAGUCAGAUAAAAGAGCUGGUCCCAGACCUCAGUUUAGACAUGGGAACU; result = 0.352 ratio
Strand = GAGUCGAGCAAACUUGAAACUACAGAAUAUCUUGCAGCCUCAGUGUUUUUACUUGCCGCGAUAGCAUUGGGGUUUUAUAGGUUCUGGAAGGAGAACUGACGAUGAUGCUGCCGCUGCUGC; result = 0.147 ratio
Strand = GAUAAGAAAAGCUUGUUGGAGACCCGAUUGCACAUCACUGGUAGAGACCUGAGGUGUCAAAUAGCUGAAACUUUCGGAUUUCAAGAAAAUUACAUCAAGAUCGUAAUAAAUAAGAAACAG; result = 0.299 ratio
Strand = AUAGAUGAAAUUGAUGUGGACCAGGAAGGAAUUGCUGAAAUGAUGCUGGAUGAAAAUGCUAUUGCUCAAGUUCCACGCCCUGGCACAUCUUUGAAGCUCCCUGGCACUAACCAAACAGGA; result = 0.22 ratio
Strand = UGUGCAUAUGAUGCUUGAGAUGGUUUUUGCAAAAGCAGAAAUCGCUGCAAGGUCAUUACAAUAGAUAAAAGUGGUAUUUUAAACCUUUGAAAGGAAUGGAUGUAACUGUACCUUGGUACA; result = 0.24 ratio
Strand = CAGGGCAUCAUCUCUCGAGCUGUUAAACACCUGUUCAAGAGUAUUGAUGAGAAAAAGACCUCAGCGAUUAAAAACGGGCUGCCCCCUCCAGAUUUUAAAGUGAAUGCCCAGUUCCUAGAG; result = 0.504 ratio
Strand = CACACACUCUUCUGUGGGACCCUCAUCUUGCAGGCCCGGGCCUAUGUGGGACCGCACGUCCUGGCAGUGGUGACCCGGACAGGGUUCUGCACGGCAAAAGGGGGCCUGGUGAGCUCCAUC; result = 0.0488 ratio
Strand = UGUGCAUAUGAUGCUUGAGAUGGUUUUUGCAAAAGCAGACAUCGCUGCAAGGUAAUCCUAAUAGAGAAAAGUGGUAUUUUAAACCUUUGAAAUAAAUGGAUGUAACUGUACCUUGGUACA; result = 1.4 ratio
Strand = GGCUGCUGGUGACUGUCGGGAGCCGUCUGGAGUUCCCGCCGGAGCGCGCGCAGGUUAAUUUUAGAAAAUGCCAAGUAGGAAGUUUGUUGAGGGUGAAGUGGUCAGAGGCCGAUGGCCUGG; result = 3.88 ratio
